Assay results collected from several papers.
Parts stem from different laboratories: compare values within a part only.
Sequence of UniProt P42336 (whole entry, unmodified, looked up): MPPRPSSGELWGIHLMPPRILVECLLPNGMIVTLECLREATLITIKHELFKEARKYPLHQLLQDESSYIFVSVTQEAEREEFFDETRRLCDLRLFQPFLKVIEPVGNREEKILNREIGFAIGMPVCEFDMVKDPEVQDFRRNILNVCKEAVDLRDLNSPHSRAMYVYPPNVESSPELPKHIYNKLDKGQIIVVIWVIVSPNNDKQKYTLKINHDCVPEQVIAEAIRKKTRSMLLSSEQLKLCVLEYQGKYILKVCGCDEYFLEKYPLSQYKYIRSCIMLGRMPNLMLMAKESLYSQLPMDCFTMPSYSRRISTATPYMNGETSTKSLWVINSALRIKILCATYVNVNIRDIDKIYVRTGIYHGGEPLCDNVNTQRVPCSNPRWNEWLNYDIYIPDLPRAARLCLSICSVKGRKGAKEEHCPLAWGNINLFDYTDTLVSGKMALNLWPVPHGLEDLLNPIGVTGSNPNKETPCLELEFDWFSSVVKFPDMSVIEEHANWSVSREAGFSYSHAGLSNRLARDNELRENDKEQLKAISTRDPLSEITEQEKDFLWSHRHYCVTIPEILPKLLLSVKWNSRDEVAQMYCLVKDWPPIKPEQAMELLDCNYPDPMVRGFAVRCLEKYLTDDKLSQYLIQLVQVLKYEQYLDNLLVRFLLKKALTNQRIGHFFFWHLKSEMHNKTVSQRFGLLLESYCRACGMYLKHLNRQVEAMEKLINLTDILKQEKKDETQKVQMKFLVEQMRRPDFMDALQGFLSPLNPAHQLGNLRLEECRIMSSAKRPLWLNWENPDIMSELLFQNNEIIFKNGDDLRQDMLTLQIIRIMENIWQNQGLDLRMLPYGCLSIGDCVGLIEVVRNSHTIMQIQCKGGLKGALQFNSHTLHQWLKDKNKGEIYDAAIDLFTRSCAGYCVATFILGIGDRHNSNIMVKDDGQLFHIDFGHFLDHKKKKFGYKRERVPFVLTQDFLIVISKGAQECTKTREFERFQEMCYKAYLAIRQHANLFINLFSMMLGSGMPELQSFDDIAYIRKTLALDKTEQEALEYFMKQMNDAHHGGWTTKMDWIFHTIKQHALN
Sequence of UniProt P51813 (whole entry, looked up): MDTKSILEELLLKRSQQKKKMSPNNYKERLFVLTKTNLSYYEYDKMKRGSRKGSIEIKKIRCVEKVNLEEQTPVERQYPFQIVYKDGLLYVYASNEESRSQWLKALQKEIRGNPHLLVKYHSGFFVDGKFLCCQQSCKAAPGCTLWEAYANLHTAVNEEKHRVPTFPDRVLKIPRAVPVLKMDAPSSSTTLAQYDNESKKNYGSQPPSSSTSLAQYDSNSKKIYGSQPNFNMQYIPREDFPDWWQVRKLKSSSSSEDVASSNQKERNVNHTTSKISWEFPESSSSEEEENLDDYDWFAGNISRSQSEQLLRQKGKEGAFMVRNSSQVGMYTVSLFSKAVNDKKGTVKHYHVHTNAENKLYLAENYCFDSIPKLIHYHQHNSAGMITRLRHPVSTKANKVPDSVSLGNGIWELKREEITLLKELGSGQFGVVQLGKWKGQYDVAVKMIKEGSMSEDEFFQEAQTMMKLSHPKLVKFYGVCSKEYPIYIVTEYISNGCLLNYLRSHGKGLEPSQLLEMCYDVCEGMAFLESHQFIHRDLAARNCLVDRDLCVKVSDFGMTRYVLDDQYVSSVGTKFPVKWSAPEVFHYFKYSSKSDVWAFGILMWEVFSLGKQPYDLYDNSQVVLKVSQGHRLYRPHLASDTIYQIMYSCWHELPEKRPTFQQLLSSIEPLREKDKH
Sequence of UniProt Q6P2M8 (whole entry, looked up): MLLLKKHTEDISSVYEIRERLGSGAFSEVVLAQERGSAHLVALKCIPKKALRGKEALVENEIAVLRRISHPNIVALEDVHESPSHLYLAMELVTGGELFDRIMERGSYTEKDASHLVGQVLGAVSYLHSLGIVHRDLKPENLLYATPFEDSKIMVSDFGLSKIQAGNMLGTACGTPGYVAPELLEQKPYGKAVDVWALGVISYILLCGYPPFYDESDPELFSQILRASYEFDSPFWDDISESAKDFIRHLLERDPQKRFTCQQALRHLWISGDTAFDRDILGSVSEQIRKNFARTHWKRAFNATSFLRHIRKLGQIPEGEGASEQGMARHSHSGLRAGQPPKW
Sequence of UniProt P37173 (whole entry, looked up): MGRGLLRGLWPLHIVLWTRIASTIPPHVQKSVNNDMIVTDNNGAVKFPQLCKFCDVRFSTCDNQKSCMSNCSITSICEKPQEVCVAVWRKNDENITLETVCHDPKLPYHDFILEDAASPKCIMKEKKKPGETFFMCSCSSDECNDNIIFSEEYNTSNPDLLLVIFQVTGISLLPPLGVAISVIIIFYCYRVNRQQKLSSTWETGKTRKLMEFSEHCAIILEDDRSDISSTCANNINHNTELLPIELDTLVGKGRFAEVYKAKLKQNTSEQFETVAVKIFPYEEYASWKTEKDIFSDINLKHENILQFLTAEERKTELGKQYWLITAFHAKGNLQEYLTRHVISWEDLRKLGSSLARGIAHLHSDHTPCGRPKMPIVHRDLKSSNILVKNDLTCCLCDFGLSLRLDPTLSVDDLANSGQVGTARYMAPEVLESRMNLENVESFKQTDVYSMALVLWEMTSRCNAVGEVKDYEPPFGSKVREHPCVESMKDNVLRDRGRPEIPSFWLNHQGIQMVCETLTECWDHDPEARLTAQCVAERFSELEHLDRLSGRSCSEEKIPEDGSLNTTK
Sequence of UniProt O95747 (whole entry, looked up): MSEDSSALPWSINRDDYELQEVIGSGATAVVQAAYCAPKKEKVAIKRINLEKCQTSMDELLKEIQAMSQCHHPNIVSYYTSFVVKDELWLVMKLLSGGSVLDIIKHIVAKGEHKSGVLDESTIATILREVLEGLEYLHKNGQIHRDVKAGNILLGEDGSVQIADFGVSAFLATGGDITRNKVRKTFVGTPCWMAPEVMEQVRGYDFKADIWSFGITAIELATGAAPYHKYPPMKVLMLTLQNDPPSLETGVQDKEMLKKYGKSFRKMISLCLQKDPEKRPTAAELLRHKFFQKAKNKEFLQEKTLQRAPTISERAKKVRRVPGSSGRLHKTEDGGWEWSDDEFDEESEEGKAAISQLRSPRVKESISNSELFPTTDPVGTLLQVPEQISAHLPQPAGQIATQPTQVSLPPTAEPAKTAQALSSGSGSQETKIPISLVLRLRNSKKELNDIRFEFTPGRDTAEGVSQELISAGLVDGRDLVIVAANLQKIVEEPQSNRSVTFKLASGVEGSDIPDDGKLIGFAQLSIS
Sequence of UniProt P53350 (whole entry, looked up): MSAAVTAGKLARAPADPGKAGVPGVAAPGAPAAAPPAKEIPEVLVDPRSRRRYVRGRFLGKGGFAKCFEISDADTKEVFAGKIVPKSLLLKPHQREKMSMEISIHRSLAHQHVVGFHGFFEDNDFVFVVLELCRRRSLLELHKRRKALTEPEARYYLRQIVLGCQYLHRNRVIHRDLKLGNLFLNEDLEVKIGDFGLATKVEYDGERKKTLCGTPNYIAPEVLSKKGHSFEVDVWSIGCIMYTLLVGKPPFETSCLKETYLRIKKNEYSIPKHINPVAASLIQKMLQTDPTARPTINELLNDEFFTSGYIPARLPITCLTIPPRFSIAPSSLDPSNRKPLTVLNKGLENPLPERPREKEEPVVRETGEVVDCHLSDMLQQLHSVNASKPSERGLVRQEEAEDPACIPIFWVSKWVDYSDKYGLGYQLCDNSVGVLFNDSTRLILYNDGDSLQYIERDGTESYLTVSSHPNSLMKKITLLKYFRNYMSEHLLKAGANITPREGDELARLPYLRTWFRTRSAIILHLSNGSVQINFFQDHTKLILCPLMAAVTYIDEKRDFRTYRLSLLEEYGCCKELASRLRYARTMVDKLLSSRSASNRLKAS
Sequence of UniProt Q9HBY8 (whole entry, looked up): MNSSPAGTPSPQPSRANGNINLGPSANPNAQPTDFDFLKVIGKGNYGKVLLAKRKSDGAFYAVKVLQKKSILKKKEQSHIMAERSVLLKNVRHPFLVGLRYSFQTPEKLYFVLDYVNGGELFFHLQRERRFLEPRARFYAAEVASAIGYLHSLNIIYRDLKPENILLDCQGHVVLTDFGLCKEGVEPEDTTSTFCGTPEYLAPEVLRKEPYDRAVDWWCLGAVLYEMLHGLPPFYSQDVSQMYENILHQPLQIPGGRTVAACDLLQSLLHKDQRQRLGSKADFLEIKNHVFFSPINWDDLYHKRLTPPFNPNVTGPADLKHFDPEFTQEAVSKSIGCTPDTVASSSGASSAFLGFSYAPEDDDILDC
Sequence of UniProt P45984 (whole entry, looked up): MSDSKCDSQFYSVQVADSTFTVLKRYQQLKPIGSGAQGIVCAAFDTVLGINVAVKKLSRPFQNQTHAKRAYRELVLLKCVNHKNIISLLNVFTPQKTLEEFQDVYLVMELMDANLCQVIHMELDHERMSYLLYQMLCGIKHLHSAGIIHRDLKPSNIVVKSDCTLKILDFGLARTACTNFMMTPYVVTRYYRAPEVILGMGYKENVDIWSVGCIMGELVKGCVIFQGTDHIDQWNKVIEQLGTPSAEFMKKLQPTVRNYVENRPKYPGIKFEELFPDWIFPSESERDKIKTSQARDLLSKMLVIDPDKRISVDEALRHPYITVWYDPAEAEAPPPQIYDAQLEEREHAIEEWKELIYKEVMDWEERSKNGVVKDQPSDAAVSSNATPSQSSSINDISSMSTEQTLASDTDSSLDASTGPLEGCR

Set 1
SMILES: COc1ccc2[nH]c3c4[nH]c5ccc(OC)cc5c4c4c(c3c2c1)C(=O)NC4=O
Tested at: 1 µM
| target | assay | setting | how to read | remaining binding [%] |
| --- | --- | --- | --- | --- |
| Serine/threonine-protein kinase VRK2 (VRK2, Homo sapiens, UniProt Q86Y07) | competitive binding panel | – | reference: vehicle | 98 |
| Calcium/calmodulin-dependent protein kinase type 1B (PNCK, Homo sapiens, UniProt Q6P2M8) | competitive binding | CAMK1B | – | 78 |
| Phosphatidylinositol 4,5-bisphosphate 3-kinase catalytic subunit alpha isoform (PIK3CA, Homo sapiens, UniProt P42336, E545A) | competitive binding panel | – | reference: vehicle | 100 |
| Cyclin-G-associated kinase (GAK, Homo sapiens, UniProt O14976) | competitive binding panel | – | reference: vehicle | 0.3 |
| Insulin-like growth factor 1 receptor (IGF1R, Homo sapiens, UniProt P08069) | competitive binding panel | – | reference: vehicle | 97 |
| Mitogen-activated protein kinase kinase kinase kinase 3 (MAP4K3, Homo sapiens, UniProt Q8IVH8) | competitive binding panel | – | reference: vehicle | 73 |
| Serine/threonine-protein kinase Sgk2 (SGK2, Homo sapiens, UniProt Q9HBY8) | competitive binding panel | – | reference: vehicle | 46 |
| Serine/threonine-protein kinase OSR1 (OXSR1, Homo sapiens, UniProt O95747) | competitive binding panel, item: OSR1 | – | reference: vehicle | 100 |
| Cytoplasmic tyrosine-protein kinase BMX (BMX, Homo sapiens, UniProt P51813) | competitive binding panel | – | reference: vehicle | 99 |
| Mitogen-activated protein kinase 6 (MAPK6, Homo sapiens, UniProt Q16659) | competitive binding panel, item: ERK3 | – | reference: vehicle | 84 |
| Serine/threonine-protein kinase PLK1 (PLK1, Homo sapiens, UniProt P53350) | competitive binding panel | – | reference: vehicle | 90 |
| Ankyrin repeat and protein kinase domain-containing protein 1 (ANKK1, Homo sapiens, UniProt Q8NFD2) | competitive binding panel | – | reference: vehicle | 71 |

Set 2
Compound: COc1ccc2c(c1)O[C@@H](c1ccc(OC)c(OC)c1)C[C@H]2NC(=O)C1(c2ccc3c(c2)OC(F)(F)O3)CC1
Observed: cell-free assay
Method: competition with immobilised ligand
Tested at: 1 µM
| target | remaining binding [%] |
| --- | --- |
| Citron Rho-interacting kinase (CIT, Homo sapiens, UniProt O14578) | 90 |
| Serine/threonine-protein kinase TNNI3K (TNNI3K, Homo sapiens, UniProt Q59H18) | 100 |
| Phosphatidylinositol 4,5-bisphosphate 3-kinase catalytic subunit alpha isoform (PIK3CA, Homo sapiens, UniProt P42336, C420R) | 86 |
| Tyrosine-protein kinase receptor UFO (AXL, Homo sapiens, UniProt P30530) | 100 |
| Mitogen-activated protein kinase 9 (MAPK9, Homo sapiens, UniProt P45984) | 83 |
| TGF-beta receptor type-2 (TGFBR2, Homo sapiens, UniProt P37173) | 87 |
| Cytoplasmic tyrosine-protein kinase BMX (BMX, Homo sapiens, UniProt P51813) | 91 |
| Serine/threonine-protein kinase 4 (STK4, Homo sapiens, UniProt Q13043) | 79 |
| Calcium/calmodulin-dependent protein kinase type 1B (PNCK, Homo sapiens, UniProt Q6P2M8) | 100 |
| Ephrin type-B receptor 4 (EPHB4, Homo sapiens, UniProt P54760) | 91 |
| Calcium/calmodulin-dependent protein kinase type 1 (CAMK1, Homo sapiens, UniProt Q14012) | 100 |
| Ephrin type-B receptor 6 (EPHB6, Homo sapiens, UniProt O15197) | 61 |
| Tyrosine-protein kinase ABL1, phosphorylated (ABL1, Homo sapiens, UniProt P00519) | 80 |

Set 3
Target: Death-associated protein kinase 2 (DAPK2, Homo sapiens, UniProt Q9UIK4)
Sequence of UniProt Q9UIK4 (whole entry, looked up): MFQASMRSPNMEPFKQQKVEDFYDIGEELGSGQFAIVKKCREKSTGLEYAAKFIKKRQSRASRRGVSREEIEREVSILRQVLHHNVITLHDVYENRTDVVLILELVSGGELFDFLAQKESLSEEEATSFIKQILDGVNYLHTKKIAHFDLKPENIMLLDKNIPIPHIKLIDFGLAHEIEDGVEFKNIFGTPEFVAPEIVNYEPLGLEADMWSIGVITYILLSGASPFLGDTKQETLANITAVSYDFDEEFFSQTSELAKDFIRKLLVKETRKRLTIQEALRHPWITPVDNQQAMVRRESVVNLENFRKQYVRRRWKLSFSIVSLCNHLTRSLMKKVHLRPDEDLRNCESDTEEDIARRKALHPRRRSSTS
Observed: enzyme activity
Mode: inhibitor
Tested at: 0.5 µM
Reference: control
| Structure (SMILES) | remaining activity [%] |
| --- | --- |
| O=C(O)c1ccc2c3c1cccc3c(=O)n1c3ccccc3nc21 | 91.9 |
| N#CC(C#N)=C(N)/C(C#N)=C/c1ccc(O)cc1 | 95.7 |
| Nc1ccc2ncnc(NCCc3ccc(Oc4ccccc4)cc3)c2c1 | 80.4 |
| CC(C)[C@H](CO)Nc1nc(Nc2cc(N)cc(Cl)c2)c2ncn(C(C)C)c2n1 | 101 |
| Cn1sc(=O)n(Cc2ccccc2)c1=O | 94 |
| C#Cc1cccc(Nc2ncnc3cc(OCCOC)c(OCCOC)cc23)c1 | 92.5 |
| CO[C@H]1C[C@@H]2CC[C@@H](C)[C@@](O)(O2)C(=O)C(=O)N2CCCC[C@H]2C(=O)O[C@H]([C@H](C)C[C@@H]2CC[C@@H](O)[C@H](OC)C2)CC(=O)[C@H](C)/C=C(\C)[C@@H](O)[C@@H](OC)C(=O)[C@H](C)C[C@H](C)/C=C/C=C/C=C/1C | 112 |
| COc1ccc(CNC(=O)Nc2ncc([N+](=O)[O-])s2)cc1 | 93.3 |
| O=C(CCCc1ccc(-c2ccccc2F)cc1)Nc1ccc(O)cc1 | 106 |
| Cn1c2ccccc2c2c3c(c4c5ccccc5n(CCC#N)c4c21)CNC3=O | 84.4 |
| COc1ccc(C(=O)Nc2sc3c(c2C(N)=O)CCCC3)cc1OC | 106 |
| Nc1[nH]nc2nc3ccccc3nc12 | 91 |
| CCOC(=O)c1c(C)[nH]c(/C=C2\C(=O)Nc3ccccc32)c1C | 96.3 |
| NCCNc1ncc(C(N)=O)c(Nc2cccc(C(F)(F)F)c2)n1 | 100 |
| COc1cc2nccc(Oc3ccc(NC(=S)NC(=O)c4ccccc4C)cc3)c2cc1OC | 78.7 |
| OCC(O)CCON=C1C(c2c(O)[nH]c3ccccc23)=Nc2ccccc21 (centres unmarked) | 104 |

Set 4
Host: human
Matrix: microsomes or S9
Tested at: 2 µM
Time: 0.5 h
| SMILES | remaining compound |
| --- | --- |
| Cn1nc2n(c1=O)CCC(NC(=O)CCC1CCCCC1)CC2 (centres unmarked) | 77.2% |
| c1ccc(N(c2ccccc2)c2nc(N3CCOCC3)nc(N3CCOCC3)n2)cc1 | 36.7% |
| CN(C)c1ccc(S(=O)(=O)c2ccc(Cl)cc2)cc1 | 0.872% |
| COC(=O)c1nc(N2CCN(C(=O)c3ccco3)CC2)c2scc(-c3ccc(C(=O)O)cc3)c2n1 | > 100% |
| O=C(O)COc1ccc(C#Cc2ccc(C(=O)NCc3ccccc3)cc2)cc1 | > 99% |
| O=c1[nH]c2ccccc2c(O)c1-c1ccc(F)cc1 | > 100% |
| O=S1(=O)c2ccccc2C(O)C(Cc2ccccc2O)N1Cc1cccnc1 (centres unmarked) | 24.2% |
| C1=Cn2nc(/C=C/c3c[nH]c4ccccc34)nc2-c2ccccc2O1 | 46.5% |
| CNc1ccc(Nc2ccc(Cl)c(C#N)n2)cn1 | 0.0207% |
